Measurements of several laboratories.
Parts stem from different laboratories: compare values within a part only. Substitutions count along the parent as printed.

Set 1
Target: Sal-like protein 4, full length isoform A (SALL4, Homo sapiens, UniProt Q9UJQ4, residues 1-1053)
Sequence of UniProt Q9UJQ4 (whole entry, looked up): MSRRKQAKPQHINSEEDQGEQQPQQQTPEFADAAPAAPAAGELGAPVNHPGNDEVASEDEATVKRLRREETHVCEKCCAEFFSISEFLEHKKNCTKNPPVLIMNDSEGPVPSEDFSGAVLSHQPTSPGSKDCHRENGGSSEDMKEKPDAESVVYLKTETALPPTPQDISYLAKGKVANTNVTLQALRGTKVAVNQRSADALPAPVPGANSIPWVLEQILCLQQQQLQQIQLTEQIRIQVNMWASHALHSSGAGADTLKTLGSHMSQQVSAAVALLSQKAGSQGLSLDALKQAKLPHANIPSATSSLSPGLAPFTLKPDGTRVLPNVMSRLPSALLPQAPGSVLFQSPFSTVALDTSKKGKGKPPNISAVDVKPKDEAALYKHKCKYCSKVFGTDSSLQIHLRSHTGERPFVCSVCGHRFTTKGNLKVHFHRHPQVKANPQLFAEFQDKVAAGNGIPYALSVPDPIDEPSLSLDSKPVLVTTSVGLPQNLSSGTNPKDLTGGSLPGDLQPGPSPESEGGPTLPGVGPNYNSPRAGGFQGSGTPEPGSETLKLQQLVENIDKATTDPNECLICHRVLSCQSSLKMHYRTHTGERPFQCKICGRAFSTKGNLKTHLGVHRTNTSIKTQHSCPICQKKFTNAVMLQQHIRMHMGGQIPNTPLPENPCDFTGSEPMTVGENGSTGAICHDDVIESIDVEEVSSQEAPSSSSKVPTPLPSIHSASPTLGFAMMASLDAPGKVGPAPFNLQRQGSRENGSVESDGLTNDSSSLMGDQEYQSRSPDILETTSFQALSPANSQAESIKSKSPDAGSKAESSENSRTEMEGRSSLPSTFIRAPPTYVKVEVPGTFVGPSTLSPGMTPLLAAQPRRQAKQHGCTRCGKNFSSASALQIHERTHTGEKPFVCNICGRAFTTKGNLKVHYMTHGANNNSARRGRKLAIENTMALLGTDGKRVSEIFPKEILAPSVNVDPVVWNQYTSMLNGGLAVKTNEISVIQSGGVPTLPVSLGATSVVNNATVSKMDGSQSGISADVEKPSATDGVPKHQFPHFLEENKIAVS
Technique: universal PBM
Form: double-stranded DNA, one strand shown
Matrix: in vitro
Concentration: 600 nM
Setting: 8-mer, flanks averaged, mean of replicates
Reading: higher = stronger binding
Strand	E-score
AGTAAGCG	-0.114
CAAACCGC	-0.254
ATACCGCG	-0.155
GGGAAATA	0.226
AACGTTCT	0.0372
ACTGTTTA	0.265
AGTTGGGC	-0.0928
CTAAGCCA	-0.148
ACTGCTTA	0.0282
CCATTTCG	-0.125
CACAAGGG	-0.236
CAGAACGA	0.041
AAAGGATC	-0.0158
CGATCTAC	-0.0416
CAAACTCG	-0.23
ACCATACC	-0.111
GACCTTGA	0.0712
TCACTCAA	0.0958
GAAATAGA	0.242
ATATTTCA	0.383
CTAATGCA	0.235
CAATGGAC	0.0721
AACGCATT	0.173
CCCACCGA	-0.223
CGTCGCAC	-0.218

Set 2
Target: CCNA1, cyclin fold, Cln2 fusion (human)
Technique: yeast growth competition, sequencing
Matrix: yeast
Setting: weak parent motif
Relative to: not given
Reading: higher = stronger binding
Parent: DNAH7 docking peptide (human); HELFQRLDFDNDG; partner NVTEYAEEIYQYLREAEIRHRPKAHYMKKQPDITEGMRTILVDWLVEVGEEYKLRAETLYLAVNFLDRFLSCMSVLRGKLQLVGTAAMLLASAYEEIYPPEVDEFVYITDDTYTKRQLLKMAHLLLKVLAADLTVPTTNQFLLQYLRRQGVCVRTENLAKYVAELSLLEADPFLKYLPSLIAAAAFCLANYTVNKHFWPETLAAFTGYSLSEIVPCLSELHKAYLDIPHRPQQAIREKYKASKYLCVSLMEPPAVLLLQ
Change	normalised enrichment score
D12A	-0.287
L7A	0.151
D8A	-0.22
E2A	-0.0861
N11A	-0.0615
F9A	0.157
Q5A	-0.0767

Set 3
Target: Ras GTPase-activating protein-binding protein 1, C-terminal RGG region (G3BP1, Homo sapiens, UniProt Q13283)
Sequence of UniProt Q13283 (whole entry, looked up): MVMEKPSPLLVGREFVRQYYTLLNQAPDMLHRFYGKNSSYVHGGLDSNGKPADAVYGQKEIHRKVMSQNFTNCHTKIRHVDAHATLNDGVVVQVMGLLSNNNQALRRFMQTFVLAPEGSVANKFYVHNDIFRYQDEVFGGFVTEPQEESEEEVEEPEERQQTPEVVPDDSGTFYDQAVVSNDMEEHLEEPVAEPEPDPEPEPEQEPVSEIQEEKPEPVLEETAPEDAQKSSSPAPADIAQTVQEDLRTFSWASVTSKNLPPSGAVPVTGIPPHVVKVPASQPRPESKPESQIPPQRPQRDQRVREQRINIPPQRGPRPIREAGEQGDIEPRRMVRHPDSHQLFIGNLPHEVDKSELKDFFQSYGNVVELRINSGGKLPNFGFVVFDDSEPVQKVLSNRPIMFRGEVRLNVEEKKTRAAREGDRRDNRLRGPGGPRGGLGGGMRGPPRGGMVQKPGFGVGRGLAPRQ
Technique: RNA Bind-n-Seq
Form: RNA
Matrix: in vitro
Concentration: 1 µM
Setting: whole 134-nt RNA, ends assumed
Added: 150 mM KCl
Relative to: input library
Reading: higher = stronger binding
Strand	log2 enrichment
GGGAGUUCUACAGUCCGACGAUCCCUCAAGUCCUGUGCUACACAUCGUAUGUACCGAAUCGGGAGGGGAGGAGGGGAAAGUAUUAUGUUACGCCGUUCGGAUCUGCACUUCCAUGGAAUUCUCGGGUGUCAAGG	0.784
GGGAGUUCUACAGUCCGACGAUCUGUGCUACACAUCGUAUGUACCGAAUCGGGGUUUUUUUGGGGAAAAAGGGGAAAAAAAGGGGAAAGUAUUAUGUUACGCCGUUCGGAUCUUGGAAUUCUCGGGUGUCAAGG	0.0513
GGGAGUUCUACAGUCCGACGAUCCAAGUCCUGUGCUACACAUCGUAUGUACCGAAUCGGAAAGGAAAAAGGAAAAAGGAAAGUAUUAUGUUACGCCGUUCGGAUCUGCACUUCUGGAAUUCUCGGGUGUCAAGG	-1.73
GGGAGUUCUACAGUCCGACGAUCAGUCCUGUGCUACACAUCGUAUGUACCGAAUCGGGAAAGGGAAAAAGGGUUUUUGGGAAAGUAUUAUGUUACGCCGUUCGGAUCUGCACUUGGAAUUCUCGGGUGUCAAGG	0.396
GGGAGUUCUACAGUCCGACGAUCCACAGACAACACGCACCCACACAGACACAGAGGGAAGGGGUUGGGAUGGGGACAGGGUGCACAGCAGGGCGGGGUAGGACCGCAGCCCCUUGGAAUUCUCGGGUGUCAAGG	-1.08
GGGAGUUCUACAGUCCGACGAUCUCAAGUCCUGUGCUACACAUCGUAUGUACCGAAUCGGUUUUUGGUUUUUGGAGGAAAGUAUUAUGUUACGCCGUUCGGAUCUGCACUUCCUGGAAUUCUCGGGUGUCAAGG	-1.05
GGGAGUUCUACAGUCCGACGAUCAGUCCUGUGCUACACAUCGUAUGUACCGAAUCGGGGAGGGGUUUUUGGGGAAAGGGGAAAGUAUUAUGUUACGCCGUUCGGAUCUGCACUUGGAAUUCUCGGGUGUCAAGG	1.6
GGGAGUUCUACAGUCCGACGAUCUUGUGGAAAACCCACAUGCUCCUCAGAAAGAUGAUGCCCUGGUGAUCACACACUACAACCGGACCCGACAGCAGGAAGAGAUGCUGGGGCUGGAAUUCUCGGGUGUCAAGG	-0.718
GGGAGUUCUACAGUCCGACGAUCCAAGUCCUGUGCUACACAUCGUAUGUACCGAAUCGGUGGUUUUUGGAAAAAAAGGAAAGUAUUAUGUUACGCCGUUCGGAUCUGCACUUCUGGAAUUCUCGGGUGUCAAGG	-1.52
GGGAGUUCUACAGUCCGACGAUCCUCAAGUCCUGUGCUACACAUCGUAUGUACCGAAUCGGGGCCGGGCCGGCCGGAAAGUAUUAUGUUACGCCGUUCGGAUCUGCACUUCCAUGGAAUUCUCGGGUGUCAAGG	-0.883

Set 4
Target: TAR DNA-binding protein 43, full length, His tag (TARDBP, Homo sapiens, UniProt Q13148, residues 1-414)
Technique: RNA Bind-n-Seq
Form: RNA
Matrix: in vitro
Concentration: 20 nM
Setting: 6-mer, flanks averaged, single round
Added: 150 mM LiCl
Relative to: input library
Reading: higher = stronger binding
Strand	6-mer enrichment (R)
AGAAGU	0.967
GUCGCG	1.06
ACUCAG	0.837
CACUUU	0.988
CAUGCC	0.933
UUUAGU	1.16
AUCAUU	0.931
GGAUCC	0.911
UAGGAG	1.01
GGACGU	1.07
UGCAAG	0.974
GACUAC	0.831
UUCCUA	0.88
GGUAGA	1.12
GAAUAC	0.81
AUCCUA	0.805
GAAGAC	0.849
UCCGAA	0.806

Set 5
Target: RING finger protein unkempt homolog, zinc fingers 1-6, GST-SBP tag (UNK, Homo sapiens, UniProt Q9C0B0, residues 30-357)
Technique: RNA Bind-n-Seq
Form: RNA
Matrix: in vitro
Concentration: not given
Setting: RNA with constant flanks, ends assumed
Relative to: input RNA pool
Reading: higher = stronger binding
Residues (chain): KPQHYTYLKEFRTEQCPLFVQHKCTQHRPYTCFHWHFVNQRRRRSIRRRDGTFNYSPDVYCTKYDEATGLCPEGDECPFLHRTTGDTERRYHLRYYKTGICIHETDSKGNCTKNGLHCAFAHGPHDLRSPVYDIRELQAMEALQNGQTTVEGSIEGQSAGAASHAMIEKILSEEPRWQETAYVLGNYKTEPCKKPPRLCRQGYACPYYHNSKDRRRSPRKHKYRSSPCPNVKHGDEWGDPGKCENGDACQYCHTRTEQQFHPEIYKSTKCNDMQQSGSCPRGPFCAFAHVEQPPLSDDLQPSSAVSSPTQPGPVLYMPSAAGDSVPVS
Strand	bound/input enrichment [ratio]
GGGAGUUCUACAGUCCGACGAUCAGGACUUCAUUCCUCCAUGUUUUCUUCCCUUAUCUUACUGUCAUUGUCCUAAAACCUUAUUUCCGAAAAUUGAUCAAGUAACAUGUUGCAUGUGGCUUACUCUGGAUAUAUCUAAGCCCUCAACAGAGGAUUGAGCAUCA	0.559
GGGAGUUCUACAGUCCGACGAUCUCAGCGUUUGACAAUCCAACUUACGAGACUGGAGAGACGAGAGAAUAUGAAGUCUCCAUCCCGGUGGGGGCAGUCUAGGGAAGUCAACUCAGACUUGCACCACAGUCCAGCAGCAAGGCUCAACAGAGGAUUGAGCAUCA	0.145
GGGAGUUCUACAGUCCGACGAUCACUGAGCAGAAUGAAGAACUGAGCAUCUUAUAUCCAGCCGCCAUUGUGACGAUUGAUGGAUUCCGUCUCUUUCAGUCUCUUCGAGCCUGUCGAAACCAAGUAGCAAAAGCUGCAGCAUCACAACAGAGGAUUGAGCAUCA	0.144
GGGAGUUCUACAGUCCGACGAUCAAGGACCAGUUCAAGAUGCCCCGGGACUGAGGCCGCCCUGCACCUUCAGCGGAUUUGGGGAUCCGGCUCUUUUAGGUAACUGGCUUUCCUGCUGGUCCGUGCGGGAAAUUCAGUCUUGAUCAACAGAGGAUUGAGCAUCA	0.168
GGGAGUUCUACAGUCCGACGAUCGCCUCUUGCCUUUUUUUUUAAUUUUAAAUUAUCUAAAUUUAUUGUUUGUUAUGGUGUCAACCGCAGUGUUUUUCUAUCAGUUUUGUCACUCCUCCUACCCCACCUUGGACUCGUUUGAGACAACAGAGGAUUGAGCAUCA	4.69
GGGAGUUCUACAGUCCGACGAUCUGAGAAUGUUAUUUAAAGUUGUAUUAUAAUGUCACCUCCAAUAAUUAUUCAGUACUGCCGCCGCAAUGUGUUAUUUGUAAGAAUUUGGUUAUUUUUUAUACUUAUAUCCACUCUAAGUCUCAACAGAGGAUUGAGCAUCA	0.295
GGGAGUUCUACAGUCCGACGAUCGCUGGUCUUUUGGAAAAAAAAUGGACAUCUGUUAUUAGAUUACAAAAGAAGGUUAUGGAAUCCGAAUCAAAGCUAAAUGAAGCAAAAGAAGAAUUUACGUCAGGUGGACCUCUUGGUCAGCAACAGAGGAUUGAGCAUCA	0.426
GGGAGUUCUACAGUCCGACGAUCUGGGUUUGGGGUAGAAGGGUGGGAAGGGGCAGGAUAAGUGGAAUCUCUAGGGUGUAUGGGAAGCCGAGGGCAGUUAGUUCUAAGUGGGCUUUUAUGUUCCCUGUUGUGAGGGUGAGAACACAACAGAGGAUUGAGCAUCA	32.5
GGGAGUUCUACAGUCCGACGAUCUGUUUGGAAGGAAUGAUUCUUGCAGCAAAAUCAGUUGAUGAAAGAAGAGACUCUCAAAUGGUGGCCGACUCCUUCAAAUCUGGUUUUGAACCUCCAGGAGACUUUCCAUUUGAAGAUUACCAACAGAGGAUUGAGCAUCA	0.14
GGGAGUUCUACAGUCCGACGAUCUUCUUUAUGUUUGUAGUCUUGAUGUGCUCCUGUGGUAUUACUUCCCCUCUGAUAGGACAUUGCCGCCAGCCUCAGCACUCAGUGAGUUCAUCAGGGCCACACCCAGUAGAGAAGGCCAAGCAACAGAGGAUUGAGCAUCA	0.906
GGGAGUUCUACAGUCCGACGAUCCUUGAUUUGGUCCAUGGGAAACCACGAGACAACAAGCAAGCAGGGGUGUUUGAACCAACCACCGUUAAAGUGAAGAGCCUGAAGUUCGCAACAGAGGCUGCAAUCACCAUCCUUCGGAUUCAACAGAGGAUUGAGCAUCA	0.0717

Mixed results
Molecule	target	assay	system	conditions	how to read	endpoint	result
PhoQ, residues 284 288 289 292 302 303 ALASRC	PhoP, residues 12 14 15 18 19 LWHVM (Escherichia coli, UniProt P23836)	Sort-seq, refers to: YFP reporter	E. coli	PhoQ-PhoP variant library, added: 10 µM Mg2+	relative to: high Mg2+ state, higher = stronger signaling	fold induction	9.92
